Results of several laboratories.
Every numbered part comes from another study and shows a few of its results, in no order. Substitutions count along the parent as printed.

Block 1
Target: CREM, bZIP domain (human)
Technique: DHFR protein complementation
Matrix: yeast
Notes: single substitutions, most at no-binding floor
Reference: wild-type JUN-FOS pair
Reading: higher = stronger binding
Parent: JUN, bZIP domain (human); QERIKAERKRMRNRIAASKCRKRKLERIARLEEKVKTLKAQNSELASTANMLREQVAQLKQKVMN; partner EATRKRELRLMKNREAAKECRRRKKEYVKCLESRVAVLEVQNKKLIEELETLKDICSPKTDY
| Substitution | binding fitness |
| --- | --- |
| E54N | -1.49 natural log |
| R30Y | -1.23 natural log |
| A29S | -1.42 natural log |
| Q41N | -1.47 natural log |
| K39R | -1.4 natural log |
| S47L | -1.33 natural log |
| N42T | -1.56 natural log |
| E44Y | -1.57 natural log |
| N42M | -1.48 natural log |
| L31I | -1.55 natural log |
| L45R | -1.55 natural log |
| S47E | -1.29 natural log |
| S47H | -1.49 natural log |
| E32L | -1.48 natural log |
| L31M | -1.23 natural log |
| K34R | -1.25 natural log |

Block 2
Target: Sal-like protein 4, full length isoform A (SALL4, Homo sapiens, UniProt Q9UJQ4, residues 1-1053)
Chain of UniProt Q9UJQ4 (whole entry, looked up): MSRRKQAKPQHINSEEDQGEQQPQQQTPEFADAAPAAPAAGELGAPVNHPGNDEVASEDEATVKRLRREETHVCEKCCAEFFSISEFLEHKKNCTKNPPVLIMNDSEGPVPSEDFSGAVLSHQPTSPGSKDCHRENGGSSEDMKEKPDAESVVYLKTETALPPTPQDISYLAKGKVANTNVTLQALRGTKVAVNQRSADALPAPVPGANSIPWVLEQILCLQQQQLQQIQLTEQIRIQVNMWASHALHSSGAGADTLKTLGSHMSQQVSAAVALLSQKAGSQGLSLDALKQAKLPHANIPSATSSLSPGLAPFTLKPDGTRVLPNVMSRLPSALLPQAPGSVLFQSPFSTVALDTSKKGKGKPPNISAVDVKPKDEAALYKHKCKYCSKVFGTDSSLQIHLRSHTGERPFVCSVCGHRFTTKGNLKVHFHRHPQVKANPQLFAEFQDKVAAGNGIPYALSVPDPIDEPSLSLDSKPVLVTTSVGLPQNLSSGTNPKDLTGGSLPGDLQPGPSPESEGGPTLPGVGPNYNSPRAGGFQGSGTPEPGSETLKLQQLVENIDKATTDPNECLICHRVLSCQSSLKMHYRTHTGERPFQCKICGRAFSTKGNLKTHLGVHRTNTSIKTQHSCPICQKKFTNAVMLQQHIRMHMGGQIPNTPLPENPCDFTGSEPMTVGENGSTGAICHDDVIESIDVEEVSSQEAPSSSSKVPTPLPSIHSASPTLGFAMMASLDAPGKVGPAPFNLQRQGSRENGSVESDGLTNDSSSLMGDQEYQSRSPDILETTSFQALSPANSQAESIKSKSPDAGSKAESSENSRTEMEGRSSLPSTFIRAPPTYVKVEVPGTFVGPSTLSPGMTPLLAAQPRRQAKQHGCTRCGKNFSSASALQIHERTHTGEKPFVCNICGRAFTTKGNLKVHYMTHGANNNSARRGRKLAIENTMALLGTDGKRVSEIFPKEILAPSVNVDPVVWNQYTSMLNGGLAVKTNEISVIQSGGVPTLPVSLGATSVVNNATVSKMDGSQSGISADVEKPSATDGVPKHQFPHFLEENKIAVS
Technique: universal PBM
Form: double-stranded DNA, one strand shown
Matrix: in vitro
Tested at: 600 nM
Notes: 8-mer, flanks averaged, mean of replicates
Reading: higher = stronger binding
| Strand | E-score |
| --- | --- |
| CGGAGGCA | -0.211 |
| GACATTAC | 0.151 |
| ATTATACG | 0.287 |
| CTCCTTGC | -0.117 |
| ATTGCAAC | 0.00985 |
| CCATTGCG | -0.187 |
| TGAGCGCA | -0.183 |
| CTCATTGC | 0.0656 |
| AAAAGGAG | 0.0399 |
| GTAACCAA | -0.0452 |
| AGAAGGCA | -0.0565 |
| CAGGCGCC | -0.265 |
| ACGATTCA | 0.0036 |
| GCACCCTA | -0.0895 |
| GGATTTTA | 0.204 |
| CTAAGCGC | -0.215 |
| ACGTATGG | 0.125 |
| AACCGAGC | -0.288 |
| GAGACCAA | -0.02 |
| CCCAGGAC | -0.388 |
| CAAGCGTA | -0.059 |
| ACCGGCTC | -0.337 |
| CATAGACG | 0.115 |

Block 3
Target: ABI1, truncated, D143A, DHFR fusion (Arabidopsis thaliana)
Technique: DHFR PCA, deep sequencing
Matrix: yeast
Notes: methotrexate growth selection, single substitutions
Added: (+)-ABA 58 µM
Reference: wild-type fitted maximum
Reading: higher = stronger binding
Parent: PYL1, truncated, DHFR fusion (Arabidopsis thaliana); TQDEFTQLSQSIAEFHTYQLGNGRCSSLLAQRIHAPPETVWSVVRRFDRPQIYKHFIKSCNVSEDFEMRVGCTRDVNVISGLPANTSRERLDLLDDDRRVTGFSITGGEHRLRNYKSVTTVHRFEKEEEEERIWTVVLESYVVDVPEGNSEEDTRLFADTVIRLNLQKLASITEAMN; partner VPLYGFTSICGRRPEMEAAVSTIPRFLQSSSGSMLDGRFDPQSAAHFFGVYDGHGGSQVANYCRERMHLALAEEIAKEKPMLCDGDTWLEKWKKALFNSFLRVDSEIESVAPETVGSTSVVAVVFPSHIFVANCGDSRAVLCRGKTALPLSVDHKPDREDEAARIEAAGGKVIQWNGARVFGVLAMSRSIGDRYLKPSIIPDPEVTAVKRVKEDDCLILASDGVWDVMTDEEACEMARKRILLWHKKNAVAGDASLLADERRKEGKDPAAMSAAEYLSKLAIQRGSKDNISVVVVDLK
| Substitution | relative binding score |
| --- | --- |
| N165C | -1.16% |
| S26D | 38.3% |
| E174Q | 75.2% |
| S59C | 75.9% |
| P36C | 75.3% |
| K116N | 52.9% |
| L91G | -2.54% |
| C72H | 65.5% |
| S171N | 82.7% |
| E14Q | 79.3% |
| K58Q | 78.6% |
| M68D | 54.2% |
| N114P | -12.6% |
| K116F | 15.3% |
| D48R | 17.9% |
| F157P | -1.49% |
| R32Y | 85.7% |
| F124H | 76.1% |

Block 4
Target: Prothrombin, mature alpha-thrombin (F2, Homo sapiens, UniProt P00734)
Technique: aptamer microarray, sandwich
Form: DNA with 2'F-ANA
Matrix: in vitro
Tested at: 200 nM
Notes: whole 15-mer aptamer, many near background
Added: Cy3 exosite-II aptamer, 400 nM
Reading: higher = stronger binding
Strand: GGTTGGTGTGGTTGG
| Modification | mean fluorescence intensity [a.u.] |
| --- | --- |
| 2'F-ANA at 1 3 6 8 9 12 14 15 | 113 |
| 2'F-ANA at 1 3 4 7 8 9 11 12 14 | 85.4 |
| 2'F-ANA at 2 3 6 8 9 11 12 14 15 | 403 |
| 2'F-ANA at 1 3 4 5 7 12 14 | 261 |
| 2'F-ANA at 1 4 8 9 10 11 12 13 | 54.4 |
| 2'F-ANA at 1 3 4 5 8 10 11 12 13 15 | 48.9 |
| 2'F-ANA at 1 5 6 8 | 70.8 |
| 2'F-ANA at 1 5 9 10 12 13 15 | 46.6 |
| 2'F-ANA at 1 2 5 6 7 10 12 14 | 57 |
| 2'F-ANA at 3 6 9 10 11 12 15 | 424 |
| 2'F-ANA at 2 5 6 8 10 11 13 | 113 |
| 2'F-ANA at 3 4 6 8 9 10 11 12 14 | 207 |
| 2'F-ANA at 2 5 6 7 8 11 | 67.5 |
| 2'F-ANA at 4 6 7 12 | 576 |
| 2'F-ANA at 2 3 4 5 8 9 11 12 | 166 |
| 2'F-ANA at 2 3 5 9 12 13 14 | 64.4 |
| 2'F-ANA at 1 2 3 4 6 9 10 11 13 14 15 | 52.9 |
| 2'F-ANA at 2 4 6 7 10 12 14 | 58.7 |

Block 5
Target: CCNB3, cyclin fold, Cln2 fusion (human)
Technique: yeast growth competition, sequencing
Matrix: yeast
Notes: weak parent motif
Reference: not given
Reading: higher = stronger binding
Parent: RBL1 docking peptide (human); GSAKRRLFGEDPP
| Substitution | normalised enrichment score |
| --- | --- |
| S2A | 0.594 |
| E10M | 0.546 |
| A3T | 0.562 |
| P12R | 0.407 |
| P13W | 0.981 |
| K4M | 0.312 |
| E10C | 0.625 |
| R6T | 0.987 |
| K4E | 0.192 |
| G1W | 1.06 |
| P12K | 0.581 |
| F8G | -0.24 |
| K4W | 0.464 |
| S2F | 0.501 |
| E10K | 0.453 |
| A3N | -0.228 |
| L7M | 0.0436 |
| L7A | 0.196 |

Block 6
Target: Interferon regulatory factor 7, full length, phosphomimetic (IRF7, Homo sapiens, UniProt Q92985, residues 1-503, S471D/S472D/S475D/S476D/S477D/S483D/S484D/S487D)
Chain of UniProt Q92985 (whole entry, unmodified, looked up): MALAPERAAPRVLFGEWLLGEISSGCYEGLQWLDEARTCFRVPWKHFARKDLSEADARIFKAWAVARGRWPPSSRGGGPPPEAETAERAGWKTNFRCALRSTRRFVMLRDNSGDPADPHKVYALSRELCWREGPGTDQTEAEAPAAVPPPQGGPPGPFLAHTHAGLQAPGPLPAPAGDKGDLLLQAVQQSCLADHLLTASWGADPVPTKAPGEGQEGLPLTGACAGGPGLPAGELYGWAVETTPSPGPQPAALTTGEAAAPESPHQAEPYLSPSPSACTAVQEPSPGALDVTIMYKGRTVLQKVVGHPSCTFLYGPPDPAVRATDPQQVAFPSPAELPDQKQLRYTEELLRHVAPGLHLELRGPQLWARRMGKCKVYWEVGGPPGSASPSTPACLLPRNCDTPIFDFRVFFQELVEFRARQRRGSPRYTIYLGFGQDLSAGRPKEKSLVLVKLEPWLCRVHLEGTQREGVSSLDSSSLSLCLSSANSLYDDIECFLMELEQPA
Technique: protein-binding microarray
Form: double-stranded DNA, one strand shown
Matrix: in vitro
Tested at: 2200 nM top
Notes: 60-bp whole probe
Added: salmon DNA 0.4 mg/ml
Reference: random background probes
Reading: higher = stronger binding
All sequences stand within: GCCTAGCAC … GTCTTGATTCGCTTGACGCTGCTG
| Strand | fitted relative affinity |
| --- | --- |
| TTAGGACTGGGGTTCCGGTTAGTGCTA | -0.363 z-score |
| CACGATATCAGTATCGAGACGTGCTAG | 0.546 z-score |
| GGGGTTTCGGATGGGATGTCGTGCTAG | 3.01 z-score |
| GACGGTTTCGGTCTAGGGACGTGCTAG | 6.9 z-score |
| TTAGGTCTCCCTATCCTTTAGTGCTAG | 0.942 z-score |
| GATGGTTTCCTTTTCCTGACGTGCTAG | 5.3 z-score |
| GACGATTTCGGACTGGGGACGTGCTAG | 1.55 z-score |
| CATTTTCTAAATTCCCTAGTGTGCTAG | 3.21 z-score |
| TCATCGATTTCTCTTTCCACTGTGCTA | 3.42 z-score |
| TTAGGAGTGGACTATCGGTTAGTGCTA | -0.298 z-score |
| TTAGGTCTCCTACTCCTTTAGTGCTAG | 0.839 z-score |
| TACGGTTCCGGTTTCGGGACGTGCTAG | 5.84 z-score |
| GACGGTTTCGGAATGGGGACGTGCTAG | 7.17 z-score |
| TCACCTTTGCCTCATCTTACTGTGCTA | 2.15 z-score |
| TCAAATTTTGCTTCTAGACTGTGCTAG | 0.537 z-score |
| TCATAATTCTTTGCTCATACTGTGCTA | 0.626 z-score |

Single results of other studies
Technique: cross-linking MS
| Molecule | partner | matrix | notes | added | endpoint | value |
| --- | --- | --- | --- | --- | --- | --- |
| HSPA9 (Homo sapiens, UniProt P38646) | GRPEL1 (Homo sapiens, UniProt Q9HAV7) | – | hits only | – | interaction screen | cross-linked |
| CLTB (Homo sapiens, UniProt P09497) | CLTC (Homo sapiens, UniProt Q00610) | cell fractions | – | DHSO | cross-linked residues | E148 to E1503 |
| CDH2 (Homo sapiens, UniProt P19022) | CTNNA1 (Homo sapiens, UniProt P35221) | – | hits only | – | interaction screen | cross-linked |
| POLR3A (Homo sapiens, UniProt O14802) | POLR3B (Homo sapiens, UniProt Q9NW08) | – | hits only | – | interaction screen | cross-linked |
